Assay results gathered from unrelated publications.
Every numbered part comes from another study and shows a few of its results, in no order.
Chain of UniProt Q05397 (whole entry, looked up): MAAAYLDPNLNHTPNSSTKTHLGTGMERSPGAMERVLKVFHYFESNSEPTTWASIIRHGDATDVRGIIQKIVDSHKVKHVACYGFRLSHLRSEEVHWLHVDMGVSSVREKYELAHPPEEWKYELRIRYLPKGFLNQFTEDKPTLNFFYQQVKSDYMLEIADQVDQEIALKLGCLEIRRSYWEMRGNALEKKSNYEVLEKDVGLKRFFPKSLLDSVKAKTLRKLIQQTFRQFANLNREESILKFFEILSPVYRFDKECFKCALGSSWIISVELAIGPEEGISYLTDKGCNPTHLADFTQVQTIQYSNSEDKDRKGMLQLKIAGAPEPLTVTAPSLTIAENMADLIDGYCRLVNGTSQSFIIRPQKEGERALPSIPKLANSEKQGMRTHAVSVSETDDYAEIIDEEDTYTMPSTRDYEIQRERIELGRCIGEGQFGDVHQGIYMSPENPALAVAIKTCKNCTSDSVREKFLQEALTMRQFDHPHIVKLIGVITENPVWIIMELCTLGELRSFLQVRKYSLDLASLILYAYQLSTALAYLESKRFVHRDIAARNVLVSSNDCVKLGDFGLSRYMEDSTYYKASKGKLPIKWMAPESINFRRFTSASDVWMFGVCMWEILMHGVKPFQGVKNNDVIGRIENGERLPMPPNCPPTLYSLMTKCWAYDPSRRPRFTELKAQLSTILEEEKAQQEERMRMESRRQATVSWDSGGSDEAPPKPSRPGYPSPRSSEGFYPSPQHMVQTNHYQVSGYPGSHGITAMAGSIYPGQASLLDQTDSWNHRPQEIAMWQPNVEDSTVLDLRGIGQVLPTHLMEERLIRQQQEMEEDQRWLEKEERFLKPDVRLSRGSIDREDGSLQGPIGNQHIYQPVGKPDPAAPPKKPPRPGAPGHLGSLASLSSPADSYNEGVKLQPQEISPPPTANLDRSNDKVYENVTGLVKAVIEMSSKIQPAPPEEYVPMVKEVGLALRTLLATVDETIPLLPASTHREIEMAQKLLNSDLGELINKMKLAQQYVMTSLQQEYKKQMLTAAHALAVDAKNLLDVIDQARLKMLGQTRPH
Chain of UniProt P15735 (whole entry, looked up): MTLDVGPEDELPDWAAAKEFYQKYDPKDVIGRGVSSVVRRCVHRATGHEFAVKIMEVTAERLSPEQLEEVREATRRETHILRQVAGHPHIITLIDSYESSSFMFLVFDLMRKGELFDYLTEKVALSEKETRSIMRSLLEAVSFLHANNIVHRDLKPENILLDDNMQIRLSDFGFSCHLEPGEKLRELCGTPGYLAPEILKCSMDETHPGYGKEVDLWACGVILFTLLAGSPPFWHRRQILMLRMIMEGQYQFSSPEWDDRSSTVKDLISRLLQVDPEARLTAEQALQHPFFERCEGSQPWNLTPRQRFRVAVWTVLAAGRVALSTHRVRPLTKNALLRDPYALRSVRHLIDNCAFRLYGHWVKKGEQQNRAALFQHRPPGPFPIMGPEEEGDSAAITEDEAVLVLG
Chain of UniProt Q7KZI7 (whole entry, looked up): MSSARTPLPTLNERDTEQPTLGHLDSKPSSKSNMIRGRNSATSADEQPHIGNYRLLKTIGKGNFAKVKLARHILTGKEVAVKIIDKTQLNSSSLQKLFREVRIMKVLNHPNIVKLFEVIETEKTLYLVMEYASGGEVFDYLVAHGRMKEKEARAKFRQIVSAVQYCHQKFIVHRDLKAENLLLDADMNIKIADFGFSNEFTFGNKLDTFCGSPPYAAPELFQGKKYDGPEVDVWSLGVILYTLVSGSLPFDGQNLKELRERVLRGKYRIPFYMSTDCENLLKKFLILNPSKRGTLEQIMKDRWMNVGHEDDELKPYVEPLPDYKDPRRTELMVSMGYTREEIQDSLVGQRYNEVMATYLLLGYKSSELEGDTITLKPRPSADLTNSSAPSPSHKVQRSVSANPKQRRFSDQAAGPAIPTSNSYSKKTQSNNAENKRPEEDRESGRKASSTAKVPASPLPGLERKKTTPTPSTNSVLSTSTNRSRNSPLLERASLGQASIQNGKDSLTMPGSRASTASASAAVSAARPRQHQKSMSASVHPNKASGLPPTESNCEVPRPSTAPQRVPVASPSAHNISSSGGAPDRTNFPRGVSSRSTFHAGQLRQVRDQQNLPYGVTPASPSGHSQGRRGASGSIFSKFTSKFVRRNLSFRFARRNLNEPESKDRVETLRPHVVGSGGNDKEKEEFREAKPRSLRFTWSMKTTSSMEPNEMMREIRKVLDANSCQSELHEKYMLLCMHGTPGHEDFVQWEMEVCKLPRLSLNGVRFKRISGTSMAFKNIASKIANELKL
Chain of UniProt Q86Z02 (whole entry, looked up): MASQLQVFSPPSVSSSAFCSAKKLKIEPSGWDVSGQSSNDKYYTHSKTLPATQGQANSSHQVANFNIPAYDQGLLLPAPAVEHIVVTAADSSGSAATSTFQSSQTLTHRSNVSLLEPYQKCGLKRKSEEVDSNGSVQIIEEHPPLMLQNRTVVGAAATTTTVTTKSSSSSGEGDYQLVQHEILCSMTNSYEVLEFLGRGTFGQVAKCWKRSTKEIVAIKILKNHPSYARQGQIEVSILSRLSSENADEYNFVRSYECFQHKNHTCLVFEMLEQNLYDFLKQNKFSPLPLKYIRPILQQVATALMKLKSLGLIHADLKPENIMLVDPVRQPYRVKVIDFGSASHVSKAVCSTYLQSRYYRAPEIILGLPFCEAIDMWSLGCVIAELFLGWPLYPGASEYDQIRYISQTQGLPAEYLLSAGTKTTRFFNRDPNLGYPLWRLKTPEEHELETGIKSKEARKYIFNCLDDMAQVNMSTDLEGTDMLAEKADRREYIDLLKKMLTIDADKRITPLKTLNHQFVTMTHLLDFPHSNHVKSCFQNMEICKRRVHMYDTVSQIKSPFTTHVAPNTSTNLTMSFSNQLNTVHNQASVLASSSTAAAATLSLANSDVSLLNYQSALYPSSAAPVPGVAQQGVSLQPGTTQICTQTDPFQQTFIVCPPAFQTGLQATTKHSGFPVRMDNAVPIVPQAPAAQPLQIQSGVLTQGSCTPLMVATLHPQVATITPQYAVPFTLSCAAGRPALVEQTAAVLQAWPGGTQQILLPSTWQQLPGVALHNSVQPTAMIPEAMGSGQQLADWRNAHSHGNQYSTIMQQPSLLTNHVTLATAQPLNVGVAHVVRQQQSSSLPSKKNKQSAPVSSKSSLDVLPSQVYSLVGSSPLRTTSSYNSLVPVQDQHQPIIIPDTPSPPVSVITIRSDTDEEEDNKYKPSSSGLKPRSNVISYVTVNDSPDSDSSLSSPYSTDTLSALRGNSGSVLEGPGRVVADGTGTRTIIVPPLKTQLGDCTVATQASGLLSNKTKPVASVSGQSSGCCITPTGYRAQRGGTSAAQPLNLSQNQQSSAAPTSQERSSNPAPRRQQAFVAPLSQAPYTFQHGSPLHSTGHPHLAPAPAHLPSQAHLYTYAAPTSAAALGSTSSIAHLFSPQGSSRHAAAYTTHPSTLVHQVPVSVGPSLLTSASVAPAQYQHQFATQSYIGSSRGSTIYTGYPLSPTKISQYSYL

Study 1
Target: Calcium/calmodulin-dependent protein kinase type II subunit alpha (CAMK2A, Homo sapiens, UniProt Q9UQM7)
Chain of UniProt Q9UQM7 (whole entry, looked up): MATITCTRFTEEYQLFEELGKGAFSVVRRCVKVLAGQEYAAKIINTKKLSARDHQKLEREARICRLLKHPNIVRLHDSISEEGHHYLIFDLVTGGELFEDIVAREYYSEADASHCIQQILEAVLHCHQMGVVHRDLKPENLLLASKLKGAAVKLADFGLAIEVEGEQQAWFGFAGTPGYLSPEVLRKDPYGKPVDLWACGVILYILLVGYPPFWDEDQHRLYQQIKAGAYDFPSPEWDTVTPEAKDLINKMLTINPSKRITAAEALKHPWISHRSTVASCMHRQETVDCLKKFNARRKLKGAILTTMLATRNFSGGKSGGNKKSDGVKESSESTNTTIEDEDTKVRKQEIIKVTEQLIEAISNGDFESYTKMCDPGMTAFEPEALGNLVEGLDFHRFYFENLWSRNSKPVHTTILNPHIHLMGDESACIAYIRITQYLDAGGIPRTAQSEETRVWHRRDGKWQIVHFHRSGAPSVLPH
Read-out: enzyme activity
Mode: inhibitor
Tested at: 10 µM
`C[C@@H]1O[C@@H](O[C@H]2[C@H](O[C@H]3[C@H](O[C@H]4CC[C@]5(C)[C@H]6CC=C7[C@@H]8CC(C)(C)CC[C@]8(C(=O)O)CC[C@@]7(C)[C@]6(C)CC[C@H]5C4(C)C)OC[C@H](O)[C@@H]3O)O[C@H](CO)[C@@H](O)[C@@H]2O)[C@H](O)[C@H](O)[C@H]1O` has an inhibition of -8%.
With `CC(C)CCC[C@@H](C)[C@H]1CC[C@@]2(C)C3=C(CC[C@]12C)[C@@]1(C)CC[C@H](O)C(C)(C)[C@@H]1CC3` the inhibition was -46%.
`COc1c(-c2ccccc2)oc2c(ccc3occc32)c1=O` has an inhibition of -3%.
`CCC(C(=O)O)c1ccc(N2Cc3ccccc3C2=O)cc1` (centres unmarked) gave an inhibition of -2%.
The inhibition of `COc1ccc(-c2cc(=O)c3c(O)c(OC)c(O)c(OC)c3o2)cc1` is reported as 17%.
`CC(CCC(=O)O)C(=O)O` (centres unmarked) gave an inhibition of -64%.
`CC1CC(OC(=O)c2ccccc2O)CC(C)(C)C1` (centres unmarked) gave an inhibition of -5%.
`C=CCNc1nc(NCC=C)nc(N2CCN(C(c3ccc(F)cc3)c3ccc(F)cc3)CC2)n1` gave an inhibition of -11%.
`COC(=O)/C=C/c1ccc(O)c(O)c1` gave an inhibition of 23%.

Study 2
Host: mouse
Matrix: microsomes or S9
Tested at: 2 µM
Time: 0.5 h
With `CC1(C)OC2CC(=O)OCC23C1CC(=O)C1(C)C3CC[C@@]2(C)[C@H](c3ccoc3)OC(=O)C3OC312` (some centres unmarked) the remaining compound was 38.1%.
For `CC(C)c1oc(C2CCCN2S(=O)(=O)c2ccc3c(c2)COC3)nc1-c1ccccc1` (centres unmarked), the remaining compound was 8.56%.
With `Cc1nc(NCC(C(C)C)N(C)C)c2nc(C)oc2n1` (centres unmarked) the remaining compound was 71.1%.
`CN1C(=O)C2(NCCc3c2[nH]c2ccccc32)c2ccccc21` (centres unmarked) gave a remaining compound of 30.6%.
The remaining compound of `O=C(CCCOc1ccc(F)cc1F)Nc1ccc2nc[nH]c(=O)c2c1` is reported as 33.4%.
For `COC(=O)[C@@H](OC(C)(C)C)c1c(C)nc2c(c(C)c(C)n2CC2CCO2)c1-c1ccc2c(c1)CCCO2` (some centres unmarked), the remaining compound was 0.27%.
`COC(=O)C12CCC(=O)N1CCc1c2n(C(=O)OC(C)(C)C)c2ccccc12` (centres unmarked) gave a remaining compound of 10.4%.
With `Clc1nn2c(-c3ccccc3)nnc2c2ccccc12` the remaining compound was 4.97%.

Study 3
Target: D(4) dopamine receptor (DRD4, Homo sapiens, UniProt P21917)
Chain of UniProt P21917 (whole entry, looked up): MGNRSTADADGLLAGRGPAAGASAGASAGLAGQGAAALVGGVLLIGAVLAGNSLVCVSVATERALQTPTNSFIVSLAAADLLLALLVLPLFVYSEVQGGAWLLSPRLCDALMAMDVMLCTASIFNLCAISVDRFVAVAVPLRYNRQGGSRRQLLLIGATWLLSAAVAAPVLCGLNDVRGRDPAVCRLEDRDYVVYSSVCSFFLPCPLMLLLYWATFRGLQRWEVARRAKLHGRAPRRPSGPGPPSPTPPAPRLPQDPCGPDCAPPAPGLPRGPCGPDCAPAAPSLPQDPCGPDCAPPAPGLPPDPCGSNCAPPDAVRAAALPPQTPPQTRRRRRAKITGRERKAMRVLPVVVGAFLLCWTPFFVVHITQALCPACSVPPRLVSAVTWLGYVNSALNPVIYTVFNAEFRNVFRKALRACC
Read-out: ligand displacement
Tested at: 10 µM
The inhibition of `c1ccc(C2CCN(c3cnc4c(N5CCOCC5)nccn34)CC2)cc1` is reported as 0.44%.
With `O=C(NS(=O)(=O)c1ccc(NCC2CCOCC2)c([N+](=O)[O-])c1)c1ccc(N2CCN(Cc3ccc(C(F)(F)F)cc3-c3ccc(Cl)cc3)CC2)cc1Oc1cnc2[nH]ccc2c1` the inhibition was -34.4%.
The inhibition of `CNC(=O)Nc1ccc2c(c1)CC[C@]21OC(=O)N(CC(=O)N(Cc2ccc(F)cc2)[C@@H](C)C(F)(F)F)C1=O` is reported as 7.26%.
With `CCc1ccccc1C(=O)Nc1n[nH]c2c(C)c(F)c(C3C(C#N)=C(C)N(C)C(C)=C3C#N)cc12` the inhibition was -0.18%.
`c1ccc(N2CCN(Cc3nc4ccccc4[nH]3)CC2)nc1` has an inhibition of 61.5%.
The inhibition of `COc1ccc2cc(OCC3(C(=O)O)CN(C(=O)c4ccc(F)cc4)C3)ccc2c1` is reported as 8.76%.
The inhibition of `CC(=O)Nc1ncc(CN2CCC[C@H](Cc3cc(C)nc(C)c3)C2)s1` is reported as 3.53%.
`Cc1c(NC(=O)c2cc(C(N)=O)nc3cc(F)ccc23)c(C(F)(F)F)nn1Cc1ccc(C#N)cc1` gave an inhibition of 15.1%.
`Nc1cnc(N2CCc3cc(S(=O)(=O)Nc4c(F)cc(Cl)cc4F)cc(N4CCCC4=O)c32)nc1` gave an inhibition of -5.02%.
The inhibition of `C[C@H](c1ccnc(Nc2nc3ccc(-c4cc(N(C)C)ncn4)cc3[nH]2)c1)N1CCN(C(=O)CC(F)(F)F)CC1` is reported as 8.17%.
`Cc1ccccc1Oc1cc(-n2c(=O)cc(C(F)(F)F)[nH]c2=O)c2ccccc2c1Cl` gave an inhibition of 9.05%.
`NS(=O)(=O)c1cc(NC(=O)Cc2ccccc2)ccc1Oc1cccc(Cl)c1` gave an inhibition of 28.4%.
`COc1cc(C(=O)O)ncc1C#Cc1ccccc1NS(=O)(=O)c1cccc2c(N(C)C)ccnc12` gave an inhibition of 4.65%.
`CN1CCN(C(=O)C(C)(C)c2ccc(C(=O)Nc3cn4cc(-c5cc(C(C)(C)C)cc(C(C)(C)C)c5)ccc4n3)cc2)CC1` gave an inhibition of 34.8%.
With `C[C@H](c1ccc(F)cc1)N(Cc1cccc(C(=O)O)c1)C(=O)c1cnc2ccccc2c1` the inhibition was 10.1%.
For `CN([C@@H]1CCc2c(CC(=O)O)c3ccccc3n2C1)S(=O)(=O)c1ccc(F)cc1`, the inhibition was 3.14%.
`CN(C)c1ncnc(-c2ccc3nc(Nc4cc(CN5CCN(C(=O)CC(F)(F)F)CC5)ccn4)[nH]c3c2)c1Cl` has an inhibition of 7.18%.
The inhibition of `Cn1nc(C(=O)NCc2ccc(C(=O)O)cc2)cc1-c1ccc2[nH]ccc2c1` is reported as -8.91%.
With `Cc1ccc(-c2cnc([C@@]3(O)CC[C@H](C(=O)O)C(C)(C)C3)s2)cc1Nc1cccc(C(F)(F)F)n1` the inhibition was -9.54%.
The inhibition of `O=C(Nc1ccc(Oc2ccc(F)cc2)cc1)N1CCc2ncccc2[C@H]1c1ccc(F)cc1` is reported as 0.29%.
The inhibition of `CNC(=N)NCCC[C@H](NC(=O)[C@H](CC(C)C)NC(=O)NNC(=O)[C@H](Cc1ccccc1)NC(=O)[C@H](CO)NC(=O)[C@H](CC(N)=O)NC(=O)[C@@H](Cc1ccncc1)NC(=O)[C@H](N)Cc1ccc(O)cc1)C(=O)N[C@@H](Cc1ccccc1)C(N)=O` is reported as -13.5%.
For `Cc1noc([C@H]2C[C@@H](c3ccc(C(F)(F)F)cc3)CN(C(=O)N3CCS(=O)(=O)C3)C2)n1`, the inhibition was 6.3%.
`CC(=O)N1CCC(c2ccc(C(=O)NC3=NCCN3)cc2C(F)(F)F)CC1` gave an inhibition of -5.64%.
For `CCC(F)(F)c1cc(N2CCC(S(C)(=O)=O)CC2)nc2sc(C(N)=O)c(N)c12`, the inhibition was 44.6%.
`CCC(=NO)C(C)=Cc1ccc(F)c(C)c1` has an inhibition of 18.6%.

Study 4
Compound: O=C(Nc1cnn(-c2csc(C(=O)NC3COC3)c2)c1)Nc1c(F)cccc1Cl
Read-out: enzyme activity
Tested at: 5 µM
Relative to: untreated control
For MARK2 (Homo sapiens, UniProt Q7KZI7): remaining activity read 89.4%.
It gave 99.2% for remaining activity (MAP4K3 (Homo sapiens, UniProt Q8IVH8)).
It gave 91.3% for remaining activity (HIPK1 (Homo sapiens, UniProt Q86Z02)).
PRKCE (Homo sapiens, UniProt Q02156) — remaining activity: 92.5%.
PTK2 (Homo sapiens, UniProt Q05397) — remaining activity: 87.5%.
The remaining activity was 127% (PHKG2 (Homo sapiens, UniProt P15735)).
The remaining activity was 85.9% (TNK2 (Homo sapiens, UniProt Q07912)).
For PDGFRA (Homo sapiens, UniProt P16234): remaining activity read 106%.

For quick reference, copied from above (study 1):
`C[C@@H]1O[C@@H](O[C@H]2[C@H](O[C@H]3[C@H](O[C@H]4CC[C@]5(C)[C@H]6CC=C7[C@@H]8CC(C)(C)CC[C@]8(C(=O)O)CC[C@@]7(C)[C@]6(C)CC[C@H]5C4(C)C)OC[C@H](O)[C@@H]3O)O[C@H](CO)[C@@H](O)[C@@H]2O)[C@H](O)[C@H](O)[C@H]1O` has an inhibition of -8%.
`COc1c(-c2ccccc2)oc2c(ccc3occc32)c1=O` has an inhibition of -3%.
`COC(=O)/C=C/c1ccc(O)c(O)c1` gave an inhibition of 23%.
`CC1CC(OC(=O)c2ccccc2O)CC(C)(C)C1` (centres unmarked) gave an inhibition of -5%.
